{"sequences": {"note": "Amino acid sequences for entries named in this document (tags omitted). A change or cut given only in a name is not applied to a line headed by its entry. Residues count along the entry.", "UniProt P9WIQ1, whole entry": "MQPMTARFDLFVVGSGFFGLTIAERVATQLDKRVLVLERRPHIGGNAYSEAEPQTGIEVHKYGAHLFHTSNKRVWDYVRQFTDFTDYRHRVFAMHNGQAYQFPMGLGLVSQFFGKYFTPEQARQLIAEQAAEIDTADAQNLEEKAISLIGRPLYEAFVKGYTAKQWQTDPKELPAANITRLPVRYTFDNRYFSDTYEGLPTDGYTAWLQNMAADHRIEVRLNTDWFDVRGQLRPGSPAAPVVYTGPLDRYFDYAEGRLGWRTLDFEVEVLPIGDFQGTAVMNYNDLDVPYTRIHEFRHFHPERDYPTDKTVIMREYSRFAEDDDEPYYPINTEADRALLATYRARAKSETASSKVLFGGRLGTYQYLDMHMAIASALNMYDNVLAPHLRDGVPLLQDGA", "UniProt Q08J23, whole entry": "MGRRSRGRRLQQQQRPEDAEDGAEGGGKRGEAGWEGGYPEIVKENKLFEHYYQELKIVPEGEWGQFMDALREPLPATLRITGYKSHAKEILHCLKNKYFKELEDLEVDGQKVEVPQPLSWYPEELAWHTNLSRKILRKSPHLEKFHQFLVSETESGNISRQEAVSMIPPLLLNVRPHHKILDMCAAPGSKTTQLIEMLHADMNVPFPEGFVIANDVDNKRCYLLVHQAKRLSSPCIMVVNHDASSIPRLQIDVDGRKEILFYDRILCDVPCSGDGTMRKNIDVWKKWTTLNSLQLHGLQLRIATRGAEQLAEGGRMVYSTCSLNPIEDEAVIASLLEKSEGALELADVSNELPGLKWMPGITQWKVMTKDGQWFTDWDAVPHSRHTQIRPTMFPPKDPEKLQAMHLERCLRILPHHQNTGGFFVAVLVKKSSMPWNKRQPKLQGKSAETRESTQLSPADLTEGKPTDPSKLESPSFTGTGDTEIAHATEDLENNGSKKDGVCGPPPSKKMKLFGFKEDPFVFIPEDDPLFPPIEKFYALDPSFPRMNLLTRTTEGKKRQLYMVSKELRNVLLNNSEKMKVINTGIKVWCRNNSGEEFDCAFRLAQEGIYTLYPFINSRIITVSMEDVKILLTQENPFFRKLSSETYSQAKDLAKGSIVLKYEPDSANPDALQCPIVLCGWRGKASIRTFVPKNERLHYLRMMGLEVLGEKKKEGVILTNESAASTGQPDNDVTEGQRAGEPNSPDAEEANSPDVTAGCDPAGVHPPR", "UniProt Q05397, whole entry": "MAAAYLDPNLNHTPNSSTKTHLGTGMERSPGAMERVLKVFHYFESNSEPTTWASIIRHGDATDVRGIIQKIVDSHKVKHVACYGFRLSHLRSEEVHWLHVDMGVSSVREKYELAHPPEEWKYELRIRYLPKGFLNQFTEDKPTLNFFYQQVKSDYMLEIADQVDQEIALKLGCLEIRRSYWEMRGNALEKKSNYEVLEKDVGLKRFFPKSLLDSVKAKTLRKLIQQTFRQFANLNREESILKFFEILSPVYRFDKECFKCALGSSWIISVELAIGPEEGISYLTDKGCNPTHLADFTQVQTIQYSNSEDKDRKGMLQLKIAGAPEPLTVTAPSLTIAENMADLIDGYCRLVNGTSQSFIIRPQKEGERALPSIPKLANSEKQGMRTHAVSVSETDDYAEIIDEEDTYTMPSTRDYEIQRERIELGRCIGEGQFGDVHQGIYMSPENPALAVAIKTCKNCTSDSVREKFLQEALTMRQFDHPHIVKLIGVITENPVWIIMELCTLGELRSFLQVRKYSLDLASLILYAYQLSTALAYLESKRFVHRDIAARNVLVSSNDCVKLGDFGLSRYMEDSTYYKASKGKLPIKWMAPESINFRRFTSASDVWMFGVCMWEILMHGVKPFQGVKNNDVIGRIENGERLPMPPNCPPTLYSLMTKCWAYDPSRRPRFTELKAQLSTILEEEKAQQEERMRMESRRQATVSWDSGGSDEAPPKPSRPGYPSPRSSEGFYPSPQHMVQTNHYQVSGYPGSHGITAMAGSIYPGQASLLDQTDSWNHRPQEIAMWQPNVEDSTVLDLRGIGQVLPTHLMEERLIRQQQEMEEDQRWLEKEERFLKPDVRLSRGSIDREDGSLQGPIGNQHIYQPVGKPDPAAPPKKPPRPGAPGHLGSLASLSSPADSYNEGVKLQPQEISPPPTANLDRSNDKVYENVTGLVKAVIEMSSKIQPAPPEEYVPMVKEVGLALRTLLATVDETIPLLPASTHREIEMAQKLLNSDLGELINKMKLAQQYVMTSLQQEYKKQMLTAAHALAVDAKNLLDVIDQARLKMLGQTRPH", "UniProt P42225, 2-749 limits assumed": "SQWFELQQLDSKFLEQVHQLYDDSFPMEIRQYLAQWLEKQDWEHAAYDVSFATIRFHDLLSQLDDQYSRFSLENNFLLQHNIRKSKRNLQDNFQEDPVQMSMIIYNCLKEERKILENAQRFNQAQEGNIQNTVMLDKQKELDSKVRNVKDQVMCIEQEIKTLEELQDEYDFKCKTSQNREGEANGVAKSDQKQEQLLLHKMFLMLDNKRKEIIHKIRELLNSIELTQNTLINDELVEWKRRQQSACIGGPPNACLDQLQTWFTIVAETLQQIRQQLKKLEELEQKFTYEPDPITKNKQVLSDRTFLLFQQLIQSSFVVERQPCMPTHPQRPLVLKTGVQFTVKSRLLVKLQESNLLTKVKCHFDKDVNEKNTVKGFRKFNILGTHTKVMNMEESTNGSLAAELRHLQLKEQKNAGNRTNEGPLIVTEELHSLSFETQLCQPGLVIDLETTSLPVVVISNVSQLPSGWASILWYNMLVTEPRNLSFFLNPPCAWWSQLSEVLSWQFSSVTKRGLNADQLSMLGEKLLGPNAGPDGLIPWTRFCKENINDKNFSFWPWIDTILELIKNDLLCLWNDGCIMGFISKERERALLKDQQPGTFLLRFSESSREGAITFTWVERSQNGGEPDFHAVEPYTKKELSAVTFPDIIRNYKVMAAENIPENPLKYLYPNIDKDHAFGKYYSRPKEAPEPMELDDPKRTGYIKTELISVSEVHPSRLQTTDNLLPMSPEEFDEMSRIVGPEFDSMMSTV", "UniProt O35453, 1-416 isoform 2": "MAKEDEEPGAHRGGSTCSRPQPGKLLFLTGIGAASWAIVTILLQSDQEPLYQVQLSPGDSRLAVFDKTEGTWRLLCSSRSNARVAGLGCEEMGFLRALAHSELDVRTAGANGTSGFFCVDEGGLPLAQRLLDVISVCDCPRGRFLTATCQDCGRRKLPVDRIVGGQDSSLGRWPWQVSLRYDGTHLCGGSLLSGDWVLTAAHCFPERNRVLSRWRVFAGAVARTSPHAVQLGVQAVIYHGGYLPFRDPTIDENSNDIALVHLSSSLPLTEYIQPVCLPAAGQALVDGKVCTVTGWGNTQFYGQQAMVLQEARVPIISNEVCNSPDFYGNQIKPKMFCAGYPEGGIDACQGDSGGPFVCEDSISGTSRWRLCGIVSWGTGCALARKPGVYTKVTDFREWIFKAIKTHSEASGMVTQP", "UniProt Q15858, 1-1977 isoform 3": "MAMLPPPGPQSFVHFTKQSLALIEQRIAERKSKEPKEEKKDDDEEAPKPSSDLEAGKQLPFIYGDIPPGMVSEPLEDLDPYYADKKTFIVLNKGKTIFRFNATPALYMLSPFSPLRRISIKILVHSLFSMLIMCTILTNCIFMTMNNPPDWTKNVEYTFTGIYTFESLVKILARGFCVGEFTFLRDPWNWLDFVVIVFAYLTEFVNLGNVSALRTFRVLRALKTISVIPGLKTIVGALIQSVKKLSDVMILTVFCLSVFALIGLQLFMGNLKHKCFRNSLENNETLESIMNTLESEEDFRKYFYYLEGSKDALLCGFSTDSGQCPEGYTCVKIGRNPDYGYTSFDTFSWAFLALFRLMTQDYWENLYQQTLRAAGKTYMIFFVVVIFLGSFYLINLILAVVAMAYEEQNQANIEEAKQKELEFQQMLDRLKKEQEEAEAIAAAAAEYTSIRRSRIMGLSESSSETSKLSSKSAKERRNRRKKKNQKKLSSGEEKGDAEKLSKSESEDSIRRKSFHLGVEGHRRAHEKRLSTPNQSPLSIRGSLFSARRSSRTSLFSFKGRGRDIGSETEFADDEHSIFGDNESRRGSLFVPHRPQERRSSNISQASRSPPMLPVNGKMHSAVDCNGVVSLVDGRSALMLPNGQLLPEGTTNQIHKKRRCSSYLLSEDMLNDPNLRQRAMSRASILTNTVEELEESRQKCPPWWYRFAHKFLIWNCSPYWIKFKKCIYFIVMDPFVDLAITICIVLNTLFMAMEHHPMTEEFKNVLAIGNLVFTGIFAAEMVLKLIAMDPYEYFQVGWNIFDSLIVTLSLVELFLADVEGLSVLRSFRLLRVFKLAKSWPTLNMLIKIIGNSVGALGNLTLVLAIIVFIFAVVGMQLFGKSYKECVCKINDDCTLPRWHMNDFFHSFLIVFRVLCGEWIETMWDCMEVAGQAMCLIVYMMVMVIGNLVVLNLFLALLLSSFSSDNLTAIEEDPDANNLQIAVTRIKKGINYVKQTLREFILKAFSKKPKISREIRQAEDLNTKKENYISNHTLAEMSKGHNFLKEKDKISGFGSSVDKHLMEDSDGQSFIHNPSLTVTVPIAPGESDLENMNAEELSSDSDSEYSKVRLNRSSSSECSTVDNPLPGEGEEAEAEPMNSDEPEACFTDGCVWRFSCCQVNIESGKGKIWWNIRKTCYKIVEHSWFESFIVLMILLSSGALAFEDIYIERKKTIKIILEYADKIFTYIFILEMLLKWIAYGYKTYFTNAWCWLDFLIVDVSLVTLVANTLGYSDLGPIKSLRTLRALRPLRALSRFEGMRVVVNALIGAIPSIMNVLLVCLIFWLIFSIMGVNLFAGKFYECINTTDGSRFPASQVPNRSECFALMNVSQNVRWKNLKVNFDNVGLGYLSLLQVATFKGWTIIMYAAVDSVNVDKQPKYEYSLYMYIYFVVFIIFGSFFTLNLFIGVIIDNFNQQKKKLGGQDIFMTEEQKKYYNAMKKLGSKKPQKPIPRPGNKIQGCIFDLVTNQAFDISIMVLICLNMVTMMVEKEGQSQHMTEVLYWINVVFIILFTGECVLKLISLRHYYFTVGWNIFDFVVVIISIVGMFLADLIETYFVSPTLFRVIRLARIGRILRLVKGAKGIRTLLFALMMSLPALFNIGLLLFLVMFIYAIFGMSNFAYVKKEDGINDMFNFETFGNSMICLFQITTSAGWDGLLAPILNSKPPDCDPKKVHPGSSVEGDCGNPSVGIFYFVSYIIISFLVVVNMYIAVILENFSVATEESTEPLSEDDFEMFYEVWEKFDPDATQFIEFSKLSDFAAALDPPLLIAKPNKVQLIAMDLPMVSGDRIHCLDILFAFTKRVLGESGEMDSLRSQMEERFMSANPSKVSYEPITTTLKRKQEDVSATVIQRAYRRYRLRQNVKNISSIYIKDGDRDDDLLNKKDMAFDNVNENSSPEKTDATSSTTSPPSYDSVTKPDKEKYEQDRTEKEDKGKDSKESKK", "UniProt P08588, whole entry": "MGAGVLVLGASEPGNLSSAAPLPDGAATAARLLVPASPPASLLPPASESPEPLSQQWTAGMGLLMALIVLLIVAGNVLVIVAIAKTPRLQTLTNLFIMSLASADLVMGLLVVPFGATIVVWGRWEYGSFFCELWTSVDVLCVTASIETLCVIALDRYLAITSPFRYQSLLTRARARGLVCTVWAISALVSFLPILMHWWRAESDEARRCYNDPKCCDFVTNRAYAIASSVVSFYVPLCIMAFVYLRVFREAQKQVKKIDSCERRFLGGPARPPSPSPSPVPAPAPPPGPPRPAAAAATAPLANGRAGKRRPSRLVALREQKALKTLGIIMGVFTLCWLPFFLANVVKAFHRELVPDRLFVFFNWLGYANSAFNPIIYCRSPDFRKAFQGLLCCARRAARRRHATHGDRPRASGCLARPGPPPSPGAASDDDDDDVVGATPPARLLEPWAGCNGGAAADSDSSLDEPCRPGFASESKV", "UniProt Q9Y463, whole entry": "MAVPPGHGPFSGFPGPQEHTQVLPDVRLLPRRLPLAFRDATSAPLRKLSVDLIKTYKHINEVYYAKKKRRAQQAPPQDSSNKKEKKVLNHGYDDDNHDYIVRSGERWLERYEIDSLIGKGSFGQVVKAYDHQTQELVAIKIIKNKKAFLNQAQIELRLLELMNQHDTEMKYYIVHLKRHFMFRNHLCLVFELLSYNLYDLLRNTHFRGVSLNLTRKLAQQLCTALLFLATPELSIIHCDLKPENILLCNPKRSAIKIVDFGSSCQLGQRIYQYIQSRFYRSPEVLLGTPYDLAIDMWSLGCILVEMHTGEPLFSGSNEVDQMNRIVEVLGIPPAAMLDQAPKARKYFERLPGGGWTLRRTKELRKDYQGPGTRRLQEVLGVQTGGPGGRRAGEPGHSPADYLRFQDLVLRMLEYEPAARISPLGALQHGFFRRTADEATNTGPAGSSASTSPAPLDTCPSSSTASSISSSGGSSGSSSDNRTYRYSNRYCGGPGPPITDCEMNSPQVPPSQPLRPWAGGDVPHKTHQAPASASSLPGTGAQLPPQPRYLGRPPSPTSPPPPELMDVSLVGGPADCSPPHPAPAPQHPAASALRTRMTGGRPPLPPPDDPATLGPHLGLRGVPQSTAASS"}, "data": "Measured values from different studies", "glf": "UDP-galactopyranose mutase (glf, Mycobacterium tuberculosis, UniProt P9WIQ1)", "note": "Protocols differ between the studies behind these lines. Numbers after ± are the reported error."}
{"SMILES": "C=CC(=O)N1C[C@H](c2ccc(Br)cc2)[C@@H]1C(=O)Nc1cccc2cccnc12", "target": "NSUN2 (Homo sapiens, UniProt Q08J23)", "assay": "tRNA methylation", "conditions": "20 µM, 1 h, wild-type enzyme", "measurement": "m5C production", "value": "inhibited"}
{"SMILES": "Cc1ccc2nc(-c3ccc4nc(-c5ccc(NC(=O)c6ccc7nc(-c8ccc(NC(=O)OCC9c%10ccccc%10-c%10ccccc%109)cc8)sc7c6)cc5)sc4c3)sc2c1S(=O)(=O)O", "target": "MBHA DNA substrate", "assay": "SYBR Green I displacement", "conditions": "100 µM", "measurement": "DNA bound", "value": "67 ± 5%"}
{"SMILES": "CC#C/C(=N\\OC[C@H]1COCCN1)c1ccc2ncnc(Nc3ccc(OCc4cccc(F)c4)c(Cl)c3)c2c1", "target": "PTK2 (Homo sapiens, UniProt Q05397)", "assay": "kinase activity", "conditions": "10 µM", "measurement": "inhibition", "value": "26.7%"}
{"SMILES": "Cc1ccc(S(=O)(=O)N(C)CC(=O)N(Cc2ccc(C3CCCCC3)cc2)c2ccc(C(=O)O)c(O)c2)cc1", "target": "Signal transducer and activator of transcription 1, homodimer (Mus musculus, UniProt P42225)", "assay": "EMSA, measured: hSIE probe", "system": "NIH3T3/hEGFR nuclear extracts", "conditions": "50 µM, added: EGF", "measurement": "DNA-binding activity", "value": "no inhibition"}
{"SMILES": "Cc1ccc2nc(-c3ccc4nc(-c5ccc(NC(=O)c6cccnc6)cc5)sc4c3)sc2c1S(=O)(=O)O", "target": "MBHA DNA substrate", "assay": "SYBR Green I displacement", "conditions": "100 µM", "measurement": "DNA bound", "value": "15 ± 10%"}
{"SMILES": "O=C1NC(=O)N(c2cccc(Br)c2)C(=O)/C1=C/c1c[nH]c2ccccc12", "target": "Serine protease hepsin (Hpn, Mus musculus, UniProt O35453)", "assay": "hepsin activity", "conditions": "50 µM", "scale": "reference: vehicle", "measurement": "inhibition of pericellular proteolysis", "value": "~50%"}
{"SMILES": "CCN1CC(n2nccc2-c2cc(C(F)(F)F)ccc2Oc2ccc(S(=O)(=O)Nc3ncns3)cc2C#N)C1", "target": "SCN9A (Homo sapiens, UniProt Q15858)", "assay": "veratridine-induced response", "conditions": "concentration not given", "measurement": "inhibition", "value": "< 20%"}
{"SMILES": "O=C(O)C(Cc1ccc(I)cc1)Nc1nc(-c2ccc(Cl)c(Cl)c2)cs1 (stereo not drawn)", "target": "glf", "assay": "enzyme activity, inhibitor", "conditions": "50 µM", "measurement": "inhibition", "value": "> 90%"}
{"SMILES": "COc1cc(OC)c2ccccc2c1C=C1C(=O)NC(=S)NC1=O", "target": "REL (Homo sapiens, UniProt Q04864)", "assay": "inhibitor, flow cytometry", "system": "SU-DHL-8, TMD8", "conditions": "3 µM, 24 h", "measurement": "nuclear translocation", "value": "decreased"}
{"SMILES": "CCCN1CCN(c2ccc3c(c2)C2CC3CCN2C(=O)OCc2ccccc2)CC1 (stereo not drawn)", "target": "ADRB1 (Homo sapiens, UniProt P08588)", "assay": "binding, radioligand binding", "measurement": "Ki", "value": "6.28 µM"}
{"SMILES": "CCN1CCN(Cc2ccc(NC(=O)c3ccc(C)c(/C=C/c4cnc5[nH]ccc5c4OC)c3)cc2C(F)(F)F)CC1", "target": "Dual specificity tyrosine-phosphorylation-regulated kinase 1B, with CDC37 (DYRK1B, Homo sapiens, UniProt Q9Y463)", "assay": "inhibitor, cell-based kinome screen", "conditions": "5 µM", "scale": "reference: vehicle", "measurement": "log2 fold change", "value": "0.638 log2"}
{"SMILES": "CS(=O)(=O)NC(=O)C(Cc1ccc(I)cc1)Nc1nc(-c2ccc(Cl)c(Cl)c2)cs1 (stereo not drawn)", "target": "glf", "assay": "enzyme activity, inhibitor", "scale": "reference: compound over reference carboxylate", "measurement": "IC50 ratio", "value": "2 to 3 fold"}
{"note": "Repeated from above:"}
{"SMILES": "Cc1ccc2nc(-c3ccc4nc(-c5ccc(NC(=O)c6ccc7nc(-c8ccc(NC(=O)OCC9c%10ccccc%10-c%10ccccc%109)cc8)sc7c6)cc5)sc4c3)sc2c1S(=O)(=O)O", "target": "MBHA DNA substrate", "assay": "SYBR Green I displacement", "conditions": "100 µM", "measurement": "DNA bound", "value": "67 ± 5%"}
